Measured values collected from several papers.
Numbered parts are unrelated; each lists some results of a single study. Several values in a cell are separate wells, animals, samples, runs or records.
Chain of UniProt P36894 (whole entry, looked up): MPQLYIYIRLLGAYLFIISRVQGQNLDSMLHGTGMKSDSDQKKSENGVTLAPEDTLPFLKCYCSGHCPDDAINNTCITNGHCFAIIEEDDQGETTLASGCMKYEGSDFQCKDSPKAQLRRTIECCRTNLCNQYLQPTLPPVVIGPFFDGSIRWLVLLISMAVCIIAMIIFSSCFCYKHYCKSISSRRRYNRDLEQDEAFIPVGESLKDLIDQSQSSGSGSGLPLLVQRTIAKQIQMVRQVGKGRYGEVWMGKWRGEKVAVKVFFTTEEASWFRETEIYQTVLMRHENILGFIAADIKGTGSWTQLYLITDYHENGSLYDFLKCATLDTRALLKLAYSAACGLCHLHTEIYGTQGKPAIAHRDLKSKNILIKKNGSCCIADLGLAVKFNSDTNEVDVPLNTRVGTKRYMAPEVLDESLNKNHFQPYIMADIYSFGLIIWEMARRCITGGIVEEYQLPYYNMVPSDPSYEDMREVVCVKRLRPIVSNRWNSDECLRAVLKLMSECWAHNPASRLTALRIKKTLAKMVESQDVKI
Chain of UniProt P48730 (whole entry, looked up): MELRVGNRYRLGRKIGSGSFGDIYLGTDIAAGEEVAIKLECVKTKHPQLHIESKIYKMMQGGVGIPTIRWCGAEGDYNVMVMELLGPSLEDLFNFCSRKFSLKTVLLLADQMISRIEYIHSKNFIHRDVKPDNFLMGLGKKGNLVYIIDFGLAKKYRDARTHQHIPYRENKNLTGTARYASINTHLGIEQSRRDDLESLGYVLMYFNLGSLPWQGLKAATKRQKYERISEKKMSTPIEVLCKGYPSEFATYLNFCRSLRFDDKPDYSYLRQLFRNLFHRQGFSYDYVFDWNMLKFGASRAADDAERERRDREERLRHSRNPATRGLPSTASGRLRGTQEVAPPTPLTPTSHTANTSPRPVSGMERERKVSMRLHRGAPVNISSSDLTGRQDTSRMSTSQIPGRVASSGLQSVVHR
Chain of UniProt P78356 (whole entry, looked up): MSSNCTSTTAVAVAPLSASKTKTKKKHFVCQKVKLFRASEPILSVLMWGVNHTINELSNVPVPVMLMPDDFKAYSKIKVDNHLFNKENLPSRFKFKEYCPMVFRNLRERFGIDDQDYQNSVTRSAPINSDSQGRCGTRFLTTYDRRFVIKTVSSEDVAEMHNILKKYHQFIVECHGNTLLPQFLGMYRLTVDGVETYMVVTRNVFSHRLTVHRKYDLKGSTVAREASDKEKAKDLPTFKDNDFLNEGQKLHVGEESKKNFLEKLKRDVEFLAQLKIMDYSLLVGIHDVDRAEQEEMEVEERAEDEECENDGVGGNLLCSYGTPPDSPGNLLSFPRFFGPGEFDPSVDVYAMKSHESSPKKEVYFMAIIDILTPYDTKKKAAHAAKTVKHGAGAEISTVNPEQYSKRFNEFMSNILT

Set 1 — effect on: cell-free assay; method: competition with immobilised ligand; concentration: 1 µM; endpoint: remaining binding
Structure (SMILES): N#CC1(c2ccccn2)CCN(Cc2cc(C(=O)N3CCCC3)c(=O)n3ccccc23)CC1
target = MAP2K4 (Homo sapiens, UniProt P45985); value = 83%
target = NEK5 (Homo sapiens, UniProt Q6P3R8); value = 82%
target = MET (Homo sapiens, UniProt P08581, Y1235D); value = 97%
target = CSNK1D (Homo sapiens, UniProt P48730); value = 74%
target = TNNI3K (Homo sapiens, UniProt Q59H18); value = 89%
target = PIK3CA (Homo sapiens, UniProt P42336, E542K); value = 90%
target = CAMK2B (Homo sapiens, UniProt Q13554); value = 89%
target = EGFR (Homo sapiens, UniProt P00533, L858R); value = 87%
target = PLK1 (Homo sapiens, UniProt P53350); value = 100%
target = CAMK4 (Homo sapiens, UniProt Q16566); value = 96%
target = BMPR1A (Homo sapiens, UniProt P36894); value = 74%
target = MET (Homo sapiens, UniProt P08581, M1250T); value = 80%
target = MAPKAPK2 (Homo sapiens, UniProt P49137); value = 84%
target = MAP3K4 (Homo sapiens, UniProt Q9Y6R4); value = 90%
target = CSNK1A1L (Homo sapiens, UniProt Q8N752); value = 91%
target = EPHA1 (Homo sapiens, UniProt P21709); value = 83%
target = HCK (Homo sapiens, UniProt P08631); value = 100%
target = DYRK1B (Homo sapiens, UniProt Q9Y463); value = 53%
target = CILK1 (Homo sapiens, UniProt Q9UPZ9); value = 100%
target = RIOK3 (Homo sapiens, UniProt O14730); value = 90%
target = PAK1 (Homo sapiens, UniProt Q13153); value = 100%
target = PIP4K2B (Homo sapiens, UniProt P78356); value = 62%
target = TEC (Homo sapiens, UniProt P42680); value = 100%
target = MAPK11 (Homo sapiens, UniProt Q15759); value = 76%
target = CDK17 (Homo sapiens, UniProt Q00537); value = 82%

Set 2 — endpoint: inhibition
Compound: COc1cc(C(=O)N2CCC(N3CCN(C)CC3)CC2)ccc1Nc1ncc2c(n1)N(C)c1ccccc1C(=O)N2C
tested on = human PBMC; assay = probe labeling, inhibitor, KiNativ profiling, item: DIkPDNLLLDSK; system = cell lysate; setting = concentration not given, LYS2 site, with: ATP acyl-phosphate probe; value = -2.3%
tested on = Protein kinase C zeta type (Prkcz, Mus musculus, UniProt Q02956); assay = probe labelling, KiNativ, item: Lys1 site peptide; system = brain tissue lysate (mouse); setting = 0.1 µM, with: ADP acyl-phosphate probe; value = 8.4%
tested on = PIP4K2C (mouse); assay = probe labelling, KiNativ, item: VKELPTLkDMDFLNK peptide, ATP site; system = brain tissue lysate (mouse); setting = 0.1 µM, with: ATP acyl-phosphate probe; value = -2.5%
tested on = ZAP70 (human); assay = probe labelling, KiNativ, item: DFG motif peptide; system = PBMC lysate (human); setting = 1 µM, with: ADP acyl-phosphate probe; value = 24.2%
tested on = HCK (human); assay = probe labelling, KiNativ ADP probe; system = human PBMC lysate; setting = concentration not given, LYS1 labelled site; value = -1.1%
tested on = mouse FAK; assay = probe labelling, KiNativ ATP probe; system = mouse brain lysate; setting = 0.1 µM; value = -4.1%
tested on = FES (human); assay = probe labelling, KiNativ ADP probe; system = human PBMC lysate; setting = concentration not given, LYS1 labelled site; value = -16.8%
tested on = LIMK1 (mouse); assay = probe labelling, KiNativ ADP probe; system = mouse brain lysate; setting = 0.1 µM, LYS1 labelled site; value = -11.3%
tested on = MLK1 (mouse); assay = probe labelling, KiNativ ADP probe; system = mouse brain lysate; setting = 1 µM, LYS1 labelled site; value = 9.4%
tested on = TRKB (mouse); assay = probe labelling, inhibitor, KiNativ ActivX ATP probe; system = mouse brain lysate; setting = 1 µM, Lys1 site peptide; value = -25.5%
tested on = MST4 and YSK1 human; assay = KiNativ profiling; system = human PBMC; setting = concentration not given, LYS2 site, with: ADP acyl phosphate probe; value = 9.2%
tested on = mouse PIP5K3; assay = probe labelling, KiNativ ADP probe; system = mouse brain lysate; setting = 0.1 µM, ATP site; value = 21.8%
tested on = TNIK (mouse); assay = probe labelling, inhibitor, KiNativ ActivX ADP probe; system = mouse brain lysate; setting = 1 µM, Lys1 site peptide; value = 6.9%
tested on = RSKL1 domain 1 (mouse); assay = probe labelling, inhibitor, KiNativ ActivX ADP probe; system = mouse brain lysate; setting = 0.1 µM; value = -25.3%

Set 3 — effect on: enzyme activity; mode: inhibitor; concentration: 0.5 µM; baseline: control; endpoint: remaining activity
Target: MAP kinase-interacting serine/threonine-protein kinase 1 (MKNK1, Homo sapiens, UniProt Q9BUB5)
Chain of UniProt Q9BUB5 (whole entry, looked up): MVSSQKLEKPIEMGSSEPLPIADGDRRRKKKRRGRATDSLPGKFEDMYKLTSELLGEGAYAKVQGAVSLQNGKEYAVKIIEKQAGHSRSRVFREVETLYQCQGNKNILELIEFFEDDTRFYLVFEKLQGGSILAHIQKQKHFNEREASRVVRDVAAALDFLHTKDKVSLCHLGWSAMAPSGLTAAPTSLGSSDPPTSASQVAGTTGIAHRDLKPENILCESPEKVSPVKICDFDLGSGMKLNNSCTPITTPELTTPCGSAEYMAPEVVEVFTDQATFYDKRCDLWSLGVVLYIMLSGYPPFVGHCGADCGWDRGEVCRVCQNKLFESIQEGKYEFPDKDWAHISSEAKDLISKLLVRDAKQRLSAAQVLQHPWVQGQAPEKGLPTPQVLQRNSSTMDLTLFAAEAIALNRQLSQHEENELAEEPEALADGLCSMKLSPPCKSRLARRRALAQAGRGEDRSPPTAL
Structure (SMILES) = COc1ccc2c(c1)c(C1=C(c3c[nH]c4ccccc34)C(=O)NC1=O)cn2CCCN(C)C; value = 92.8%
Structure (SMILES) = COc1cccc(-c2cc(=O)c3ccccc3o2)c1N; value = 95.4%
Structure (SMILES) = O=Nc1c(-c2c(O)[nH]c3cc(Br)ccc23)[nH]c2ccccc12; value = 102%
Structure (SMILES) = O=C1NC(=O)c2c1c1c3ccccc3[nH]c1c1[nH]c3cc(Br)ccc3c21; value = 81.5%
Structure (SMILES) = COc1ccc(COc2ccc(Cc3cnc(N)nc3N)cc2OC)cc1; value = 113%
Structure (SMILES) = O=C1Nc2ccc(Br)cc2/C1=C/c1cc2c([nH]1)CCCC2; value = 106%
Structure (SMILES) = c1ccc2c(-c3ccncc3)c[nH]c2c1; value = 75.5%
Structure (SMILES) = c1ccc(-c2n[nH]c3c2oc2ccccc23)cc1; value = 96.2%
Structure (SMILES) = Cc1cc(Nc2cc(N3CCN(C)CC3)nc(Sc3ccc(NC(=O)C4CC4)cc3)n2)[nH]n1; value = 92.8%
Structure (SMILES) = CN1CCN(c2ccc3nc(-c4c(N)c5c(F)cccc5[nH]c4=O)[nH]c3c2)CC1; value = 88.7%
Structure (SMILES) = CCCNC(=O)Nc1ccc(Oc2ncnc3cc(OC)c(OC)cc23)cc1Cl; value = 95.2%

Set 4 — effect on: enzyme activity; mode: inhibitor; concentration: 77 µM; baseline: untreated; endpoint: remaining activity
Target: DNA polymerase theta, ATPase domain (POLQ, Homo sapiens, UniProt O75417)
Chain of UniProt O75417 (whole entry, unmodified, looked up): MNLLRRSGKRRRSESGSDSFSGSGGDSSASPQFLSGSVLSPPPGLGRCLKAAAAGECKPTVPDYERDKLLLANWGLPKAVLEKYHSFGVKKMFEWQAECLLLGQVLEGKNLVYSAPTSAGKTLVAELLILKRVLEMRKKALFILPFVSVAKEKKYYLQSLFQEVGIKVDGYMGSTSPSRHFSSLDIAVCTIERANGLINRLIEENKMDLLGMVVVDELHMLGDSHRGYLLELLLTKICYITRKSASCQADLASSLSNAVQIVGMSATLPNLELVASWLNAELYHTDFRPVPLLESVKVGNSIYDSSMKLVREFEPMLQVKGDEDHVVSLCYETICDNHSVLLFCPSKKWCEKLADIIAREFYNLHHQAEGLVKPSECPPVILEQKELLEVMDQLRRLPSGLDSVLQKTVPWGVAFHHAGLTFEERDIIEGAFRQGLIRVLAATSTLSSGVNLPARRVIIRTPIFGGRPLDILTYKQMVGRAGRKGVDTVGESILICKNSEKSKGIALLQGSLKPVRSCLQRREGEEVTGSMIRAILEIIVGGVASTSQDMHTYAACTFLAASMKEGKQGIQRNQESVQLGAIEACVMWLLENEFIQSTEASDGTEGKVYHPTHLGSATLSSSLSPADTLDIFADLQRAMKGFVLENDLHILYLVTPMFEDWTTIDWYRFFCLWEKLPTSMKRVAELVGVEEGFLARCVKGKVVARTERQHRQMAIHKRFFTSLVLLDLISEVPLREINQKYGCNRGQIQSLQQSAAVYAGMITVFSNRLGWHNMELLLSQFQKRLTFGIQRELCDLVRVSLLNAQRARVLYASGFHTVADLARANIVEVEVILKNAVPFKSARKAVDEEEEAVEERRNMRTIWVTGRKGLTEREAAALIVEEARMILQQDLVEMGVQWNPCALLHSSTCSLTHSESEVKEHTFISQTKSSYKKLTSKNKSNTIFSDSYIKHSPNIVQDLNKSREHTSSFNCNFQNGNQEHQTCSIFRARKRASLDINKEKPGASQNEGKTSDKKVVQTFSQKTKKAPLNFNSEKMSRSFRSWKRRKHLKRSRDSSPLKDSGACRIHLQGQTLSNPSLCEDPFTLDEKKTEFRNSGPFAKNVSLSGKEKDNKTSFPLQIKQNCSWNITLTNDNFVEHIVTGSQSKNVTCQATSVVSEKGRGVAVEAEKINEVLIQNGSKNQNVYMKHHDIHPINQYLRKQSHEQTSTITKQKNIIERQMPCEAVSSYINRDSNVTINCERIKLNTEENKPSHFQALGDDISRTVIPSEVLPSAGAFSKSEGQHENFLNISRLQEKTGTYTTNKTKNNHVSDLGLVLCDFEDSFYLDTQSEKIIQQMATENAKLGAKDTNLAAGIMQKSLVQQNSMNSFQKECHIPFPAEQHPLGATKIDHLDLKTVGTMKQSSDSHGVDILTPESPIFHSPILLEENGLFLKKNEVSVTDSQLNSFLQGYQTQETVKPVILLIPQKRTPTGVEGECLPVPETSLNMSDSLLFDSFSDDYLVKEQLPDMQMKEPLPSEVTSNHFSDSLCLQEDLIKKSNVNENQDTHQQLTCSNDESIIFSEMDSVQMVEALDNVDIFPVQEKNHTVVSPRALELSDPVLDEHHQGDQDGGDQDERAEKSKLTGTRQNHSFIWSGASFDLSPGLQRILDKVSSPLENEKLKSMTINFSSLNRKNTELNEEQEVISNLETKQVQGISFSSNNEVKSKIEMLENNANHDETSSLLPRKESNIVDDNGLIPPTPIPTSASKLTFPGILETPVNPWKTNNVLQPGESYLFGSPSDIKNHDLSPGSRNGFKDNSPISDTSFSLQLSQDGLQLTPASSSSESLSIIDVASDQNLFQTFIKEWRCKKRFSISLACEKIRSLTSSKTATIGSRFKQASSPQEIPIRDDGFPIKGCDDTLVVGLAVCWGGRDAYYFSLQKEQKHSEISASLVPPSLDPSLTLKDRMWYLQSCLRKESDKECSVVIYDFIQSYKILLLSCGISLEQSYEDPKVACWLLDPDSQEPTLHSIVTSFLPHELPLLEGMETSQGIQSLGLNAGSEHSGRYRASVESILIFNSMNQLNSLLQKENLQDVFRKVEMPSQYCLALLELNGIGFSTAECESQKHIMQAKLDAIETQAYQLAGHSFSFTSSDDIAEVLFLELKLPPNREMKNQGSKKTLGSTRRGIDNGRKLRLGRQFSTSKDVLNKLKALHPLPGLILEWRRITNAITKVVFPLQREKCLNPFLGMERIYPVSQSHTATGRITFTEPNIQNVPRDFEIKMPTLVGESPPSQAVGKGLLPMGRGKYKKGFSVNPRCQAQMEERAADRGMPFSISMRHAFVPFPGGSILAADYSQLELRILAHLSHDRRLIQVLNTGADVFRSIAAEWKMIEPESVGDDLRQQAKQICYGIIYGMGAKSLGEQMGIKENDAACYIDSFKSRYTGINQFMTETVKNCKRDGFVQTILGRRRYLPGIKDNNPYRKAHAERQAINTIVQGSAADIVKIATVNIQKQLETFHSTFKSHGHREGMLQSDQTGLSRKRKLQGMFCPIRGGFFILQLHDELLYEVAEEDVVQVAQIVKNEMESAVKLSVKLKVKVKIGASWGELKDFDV
Structure (SMILES) = N#Cc1c(NC(=O)c2cccc3ccccc23)sc2c1CCCC2; value = 100% and 110%
Structure (SMILES) = Cc1cc(/C=C/C#N)cc(C)c1Nc1ccnc(Nc2ccc(C#N)cc2)n1; value = 102%
Structure (SMILES) = NC(=O)c1cccnc1; value = 95.4%
Structure (SMILES) = Cc1ccc(-c2c(-c3nn(C)c4ncnc(N5CC[C@H](N6CCCCC6)C5)c34)cnn2C)cc1; value = 102%
Structure (SMILES) = Cc1c(N(C)CS(=O)(=O)O)c(=O)n(-c2ccccc2)n1C; value = 93.4%
Structure (SMILES) = COc1ccccc1CN[C@@H]1CCCN[C@@H]1c1ccccc1; value = 108%
Structure (SMILES) = Nc1cc(-c2ccncc2)c[nH]c1=O; value = 97.5%
Structure (SMILES) = CC(C)Cc1ccc([C@H](C)C(=O)O)cc1; value = 99.9%
Structure (SMILES) = O=[N+]([O-])c1ccc2c(c1)S(=O)(=O)C=C2; value = 109% and 102%
Structure (SMILES) = CC(=O)NNC(=O)N1Cc2ccccc2Oc2ccc(Cl)cc21; value = 101%

A few entries again (set 1):
target = PIK3CA (Homo sapiens, UniProt P42336, E542K); value = 90%
target = CAMK2B (Homo sapiens, UniProt Q13554); value = 89%
target = EGFR (Homo sapiens, UniProt P00533, L858R); value = 87%
